Experimental data collected from several papers.
Parts stem from different laboratories: compare values within a part only. Several values in a cell are separate wells, animals, samples, runs or records.
Chain of UniProt P07333 (whole entry, looked up): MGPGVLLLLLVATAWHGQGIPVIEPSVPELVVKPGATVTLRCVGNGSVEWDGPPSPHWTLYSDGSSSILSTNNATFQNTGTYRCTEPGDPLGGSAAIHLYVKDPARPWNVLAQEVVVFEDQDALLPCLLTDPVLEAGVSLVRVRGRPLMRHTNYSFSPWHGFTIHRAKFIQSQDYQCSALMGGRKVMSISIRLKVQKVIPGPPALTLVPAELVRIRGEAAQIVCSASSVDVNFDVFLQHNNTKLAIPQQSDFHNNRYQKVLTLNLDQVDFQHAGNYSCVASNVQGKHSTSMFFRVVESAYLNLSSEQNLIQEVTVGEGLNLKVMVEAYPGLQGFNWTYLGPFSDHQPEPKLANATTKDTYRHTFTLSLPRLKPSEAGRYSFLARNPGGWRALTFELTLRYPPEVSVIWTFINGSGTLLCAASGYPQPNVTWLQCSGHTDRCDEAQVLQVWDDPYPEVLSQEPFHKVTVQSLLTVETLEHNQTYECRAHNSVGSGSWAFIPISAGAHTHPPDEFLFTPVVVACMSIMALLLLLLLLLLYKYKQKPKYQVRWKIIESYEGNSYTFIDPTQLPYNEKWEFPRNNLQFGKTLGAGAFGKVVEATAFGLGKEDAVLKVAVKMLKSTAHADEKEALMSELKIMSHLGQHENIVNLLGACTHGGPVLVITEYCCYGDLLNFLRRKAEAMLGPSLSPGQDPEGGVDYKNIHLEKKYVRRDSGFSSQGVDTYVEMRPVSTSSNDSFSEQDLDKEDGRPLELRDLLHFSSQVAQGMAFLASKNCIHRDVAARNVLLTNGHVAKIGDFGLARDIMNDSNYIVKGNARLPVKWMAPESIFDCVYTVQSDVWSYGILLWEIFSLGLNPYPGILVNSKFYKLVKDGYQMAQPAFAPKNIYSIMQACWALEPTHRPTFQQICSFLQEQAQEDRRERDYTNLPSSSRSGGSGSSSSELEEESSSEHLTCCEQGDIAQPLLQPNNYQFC
Chain of UniProt P54753 (whole entry, looked up): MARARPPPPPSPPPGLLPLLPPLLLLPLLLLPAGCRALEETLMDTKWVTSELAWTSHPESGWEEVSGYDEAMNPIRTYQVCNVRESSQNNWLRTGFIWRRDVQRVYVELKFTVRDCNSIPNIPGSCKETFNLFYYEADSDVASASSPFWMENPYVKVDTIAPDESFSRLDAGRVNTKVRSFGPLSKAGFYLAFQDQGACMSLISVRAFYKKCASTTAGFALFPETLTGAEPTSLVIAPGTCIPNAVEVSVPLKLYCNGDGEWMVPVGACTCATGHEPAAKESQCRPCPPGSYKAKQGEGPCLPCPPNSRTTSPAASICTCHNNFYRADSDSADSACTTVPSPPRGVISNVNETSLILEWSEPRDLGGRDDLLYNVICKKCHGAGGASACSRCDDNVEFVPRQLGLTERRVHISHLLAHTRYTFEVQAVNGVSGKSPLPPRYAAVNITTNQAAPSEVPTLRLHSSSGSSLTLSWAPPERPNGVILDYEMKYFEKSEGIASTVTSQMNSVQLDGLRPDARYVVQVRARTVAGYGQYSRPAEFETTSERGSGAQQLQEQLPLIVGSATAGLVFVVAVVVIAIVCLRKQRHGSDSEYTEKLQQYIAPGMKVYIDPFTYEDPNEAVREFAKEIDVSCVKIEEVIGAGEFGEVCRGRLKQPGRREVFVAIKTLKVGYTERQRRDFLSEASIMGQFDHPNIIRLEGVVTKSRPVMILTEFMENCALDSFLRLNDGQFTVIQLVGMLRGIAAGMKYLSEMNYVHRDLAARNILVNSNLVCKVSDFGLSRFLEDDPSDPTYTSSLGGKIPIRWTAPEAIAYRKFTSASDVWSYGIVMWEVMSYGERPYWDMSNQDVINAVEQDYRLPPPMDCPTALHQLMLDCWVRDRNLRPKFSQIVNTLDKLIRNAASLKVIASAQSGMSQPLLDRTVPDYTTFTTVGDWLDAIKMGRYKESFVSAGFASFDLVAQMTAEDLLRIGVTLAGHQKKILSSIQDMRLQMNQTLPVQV
Chain of UniProt P36896 (whole entry, looked up): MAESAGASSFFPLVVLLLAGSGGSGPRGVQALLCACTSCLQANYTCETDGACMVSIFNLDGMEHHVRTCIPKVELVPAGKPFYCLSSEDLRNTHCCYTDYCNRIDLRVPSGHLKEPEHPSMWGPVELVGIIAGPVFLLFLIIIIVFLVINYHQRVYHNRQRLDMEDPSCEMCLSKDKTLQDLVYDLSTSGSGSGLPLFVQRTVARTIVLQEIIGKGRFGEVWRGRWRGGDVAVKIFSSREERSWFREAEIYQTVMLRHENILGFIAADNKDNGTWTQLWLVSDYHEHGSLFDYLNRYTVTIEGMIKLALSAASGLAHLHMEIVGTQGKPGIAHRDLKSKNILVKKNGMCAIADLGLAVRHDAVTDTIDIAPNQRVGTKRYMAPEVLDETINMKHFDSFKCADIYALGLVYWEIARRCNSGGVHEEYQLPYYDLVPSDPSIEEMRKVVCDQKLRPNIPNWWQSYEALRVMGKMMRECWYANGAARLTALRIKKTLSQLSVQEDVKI
Chain of UniProt Q99759 (whole entry, looked up): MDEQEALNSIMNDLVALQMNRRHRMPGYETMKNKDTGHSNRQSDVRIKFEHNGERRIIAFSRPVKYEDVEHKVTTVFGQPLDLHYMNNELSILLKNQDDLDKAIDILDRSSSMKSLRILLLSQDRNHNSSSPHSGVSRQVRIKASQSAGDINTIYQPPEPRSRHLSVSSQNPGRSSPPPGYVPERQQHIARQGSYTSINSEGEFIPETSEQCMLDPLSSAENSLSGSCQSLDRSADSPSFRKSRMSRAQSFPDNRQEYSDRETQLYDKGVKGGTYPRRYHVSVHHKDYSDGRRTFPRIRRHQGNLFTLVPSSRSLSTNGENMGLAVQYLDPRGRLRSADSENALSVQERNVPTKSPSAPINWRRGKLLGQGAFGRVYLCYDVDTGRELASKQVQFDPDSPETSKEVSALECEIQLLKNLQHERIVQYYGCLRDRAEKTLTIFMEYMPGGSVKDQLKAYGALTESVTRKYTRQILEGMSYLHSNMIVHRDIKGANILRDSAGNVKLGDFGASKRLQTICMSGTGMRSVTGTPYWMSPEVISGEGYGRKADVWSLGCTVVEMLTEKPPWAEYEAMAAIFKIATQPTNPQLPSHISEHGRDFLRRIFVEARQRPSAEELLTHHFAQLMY
Chain of UniProt Q04759 (whole entry, looked up): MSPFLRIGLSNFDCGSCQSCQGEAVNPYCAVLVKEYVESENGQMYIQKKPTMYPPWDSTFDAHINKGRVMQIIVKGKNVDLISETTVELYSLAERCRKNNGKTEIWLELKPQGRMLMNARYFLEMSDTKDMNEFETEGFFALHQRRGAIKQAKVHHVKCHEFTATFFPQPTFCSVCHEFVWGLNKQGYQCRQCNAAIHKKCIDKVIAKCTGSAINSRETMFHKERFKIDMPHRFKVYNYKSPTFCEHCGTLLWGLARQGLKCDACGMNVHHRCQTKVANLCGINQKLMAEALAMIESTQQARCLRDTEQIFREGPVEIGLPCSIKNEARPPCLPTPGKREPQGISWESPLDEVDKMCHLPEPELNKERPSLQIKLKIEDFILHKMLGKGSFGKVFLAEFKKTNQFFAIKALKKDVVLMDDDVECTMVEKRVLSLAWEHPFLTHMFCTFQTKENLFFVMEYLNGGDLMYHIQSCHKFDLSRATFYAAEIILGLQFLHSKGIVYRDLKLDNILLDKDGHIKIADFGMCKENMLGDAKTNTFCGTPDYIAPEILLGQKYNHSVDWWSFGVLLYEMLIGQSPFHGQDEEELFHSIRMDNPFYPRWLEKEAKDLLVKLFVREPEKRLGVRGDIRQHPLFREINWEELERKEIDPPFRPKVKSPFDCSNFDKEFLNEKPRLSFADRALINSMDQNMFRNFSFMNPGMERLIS
Chain of UniProt O60331 (whole entry, looked up): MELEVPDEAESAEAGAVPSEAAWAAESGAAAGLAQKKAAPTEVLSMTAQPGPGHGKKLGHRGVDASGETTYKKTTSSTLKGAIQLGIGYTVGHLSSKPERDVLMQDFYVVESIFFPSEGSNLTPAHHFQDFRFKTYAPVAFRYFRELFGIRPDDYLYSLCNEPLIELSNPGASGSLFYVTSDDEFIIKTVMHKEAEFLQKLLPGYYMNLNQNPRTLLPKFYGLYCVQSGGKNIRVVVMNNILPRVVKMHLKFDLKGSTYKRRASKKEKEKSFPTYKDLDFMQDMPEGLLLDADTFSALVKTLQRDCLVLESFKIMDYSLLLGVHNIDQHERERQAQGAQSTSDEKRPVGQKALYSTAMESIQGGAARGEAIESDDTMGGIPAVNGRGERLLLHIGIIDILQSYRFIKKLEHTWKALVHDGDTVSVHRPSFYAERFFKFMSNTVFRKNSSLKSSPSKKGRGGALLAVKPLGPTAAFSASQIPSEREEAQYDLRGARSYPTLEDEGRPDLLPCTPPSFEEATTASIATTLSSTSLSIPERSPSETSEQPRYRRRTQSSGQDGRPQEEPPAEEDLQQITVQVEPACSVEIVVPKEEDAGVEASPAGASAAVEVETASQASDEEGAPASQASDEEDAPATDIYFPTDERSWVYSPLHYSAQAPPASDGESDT

Sample 1
Cell line: A-375
Tested at: 100 µM
Time: 36 h
| SMILES | viability [%] |
| --- | --- |
| Cn1c(NCCN(CCO)CCCc2ccc([N+](=O)[O-])cc2)cc(=O)n(C)c1=O | 91.6 |
| C[C@@H]1C[C@H]2[C@@H]3CCC4=CC(=O)C=C[C@]4(C)[C@@]3(Cl)[C@@H](O)C[C@]2(C)[C@@]1(OC(=O)c1ccco1)C(=O)CCl | 6.31 |
| CCN(CC)CCOc1ccc2c(c1)C(=O)c1cc(OCCN(CC)CC)ccc1-2 | 7.17 |
| C[C@H](CCC(=O)O)[C@H]1CC[C@H]2[C@@H]3C(=O)C[C@@H]4CC(=O)CC[C@]4(C)[C@H]3CC(=O)[C@]12C | 110 |
| COc1cc2c(cc1OC)[C@H]1CC(=O)[C@H](CC(C)C)CN1CC2 (racemic) | 63.1 |
| CCC(C)(C)c1ccc(CC(C)CN2C[C@@H](C)O[C@@H](C)C2)cc1 (stereo partly drawn) | -1.45 |
| O=C(OOC(=O)c1ccccc1)c1ccccc1 | 111 |
| CCCCCCCCCCCCCCCC(=O)OC/C=C(C)/C=C/C=C(C)/C=C/C1=C(C)CCCC1(C)C | 47.7 |
| CO/N=C1\CN(c2nc3c(cc2F)c(=O)c(C(=O)O)cn3C2CC2)CC1CN (stereo not drawn) | 45.5 |
| CC1CNc2c(cccc2S(=O)(=O)N[C@@H](CCCNC(=N)N)C(=O)N2CC[C@@H](C)C[C@@H]2C(=O)O)C1 (stereo partly drawn) | 102 |
| COc1cc2c(cc1OC)[C@@H]1Cc3ccc(OC)c(OC)c3CN1CC2 | 87 |
| Cc1nnc(SCC2=C(C(=O)O)N3C(=O)[C@@H](NC(=O)Cn4cnnn4)[C@H]3SC2)s1 | 110 |
| OC[C@H]1O[C@@H](c2ccc(F)c(Cc3cc4ccccc4s3)c2)[C@H](O)[C@@H](O)[C@@H]1O | 71.2 |
| O=C(O)c1ccc(S(=O)(=O)N(Cl)Cl)cc1 | 107 |
| CS(=O)(=O)n1cc2c(n1)CN([C@H]1CO[C@H](c3cc(F)ccc3F)[C@@H](N)C1)C2 | 80.5 |
| NNc1nnc(NN)c2ccccc12 | 61.1 |

Sample 2
Target: Eukaryotic initiation factor 4A-III (Homo sapiens, UniProt P38919)
Chain of UniProt P38919 (whole entry, looked up): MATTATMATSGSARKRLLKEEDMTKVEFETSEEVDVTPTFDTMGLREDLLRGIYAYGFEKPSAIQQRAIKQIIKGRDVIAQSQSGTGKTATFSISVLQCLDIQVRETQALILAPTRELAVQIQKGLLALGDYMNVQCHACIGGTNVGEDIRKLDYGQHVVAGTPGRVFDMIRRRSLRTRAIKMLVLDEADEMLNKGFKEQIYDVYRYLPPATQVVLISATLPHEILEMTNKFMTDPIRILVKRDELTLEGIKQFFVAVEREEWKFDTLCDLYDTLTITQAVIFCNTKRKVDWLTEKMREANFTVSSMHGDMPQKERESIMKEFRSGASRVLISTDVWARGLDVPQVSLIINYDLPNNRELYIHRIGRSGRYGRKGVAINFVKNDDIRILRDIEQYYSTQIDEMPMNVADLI
Observed: RNA clamping
Technique: fluorescence polarization
Tested at: concentration not given
Added: FAM-labelled poly r(AG)8 RNA
| Compound | fluorescence polarization change |
| --- | --- |
| COc1ccc([C@@]23Oc4cc(OC)cc(OC)c4[C@]2(O)[C@@H]2OC(=O)[C@@H]2[C@H]3c2ccccc2)cc1 | 25.1 mP |
| COC(=O)[C@H]1[C@@H](O)[C@@]2(O)c3c(OC)cc(O)cc3O[C@@]2(c2ccc(Br)cc2)[C@@H]1c1ccccc1 | 7.3 mP and 33 mP |
| COc1ccc([C@]23Oc4cc(OC)cc(OC)c4[C@@]2(O)c2nc(-c4ccc(C)cc4)[nH]c(=O)c2[C@@H]3c2ccccc2)cc1 | 21.5 mP |
| COc1ccc([C@@]23Oc4cc(OC)cc(OC)c4[C@]2(O)C2=NNC(=O)C2=C3c2ccccc2)cc1 | -2.8 mP |
| COc1ccc([C@@]23Oc4cc(OC)cc(OC)c4[C@]2(O)c2nc(C4CC4)[nH]c(=O)c2[C@H]3c2ccccc2)cc1 | 25.2 mP and 34.8 mP and 27.8 mP |
| CONC(=O)[C@H]1[C@@H](O)[C@@]2(O)c3c(OC)cc(F)cc3O[C@@]2(c2ccc(Br)cc2)[C@@H]1c1ccccc1 | 60.3 mP |
| COc1ccc([C@@]23Oc4cc(OC)c(Cl)c(OC)c4[C@]2(O)c2nc4n(c(=O)c2[C@H]3c2ccccc2)CCC4)cc1 | 13.2 mP |
| COc1ccc([C@@]23Oc4cc(OC)cc(OC)c4[C@]2(O)[C@H](O)[C@H](C(=O)c2cc4ccccc4o2)[C@H]3c2ccccc2)cc1 | 5.1 mP |
| COC(=O)[C@H]1C(=O)[C@@]2(NCC3CCNCC3)c3c(OC)cc(OC)cc3O[C@@]2(c2ccc(OC)cc2)[C@@H]1c1ccccc1 | 7.3 mP |
| COC(=O)[C@@H]1[C@@H](c2ccccc2)[C@]2(c3ccc(OC)cc3)Oc3cc(OC)cc(OC)c3[C@@]23N2CCCC2=N[C@@]13O | 9.4 mP |
| CCCN[C@@]12C(=O)[C@H](C(=O)N(C)C)[C@@H](c3ccccc3)[C@]1(c1ccc(OC)cc1)Oc1cc(OC)cc(OC)c12 | 1.3 mP |
| COc1ccc([C@]23Oc4cc(OC)cc(OC)c4[C@](O)([C@H](C(=O)OCc4ccccc4)[C@H]2c2ccccc2)[C@@H]3O)cc1 | -8.9 mP |
| COC(=O)[C@H]1C(=O)[C@@]2(OC)c3c(OC)cc(OC)cc3O[C@@]2(c2ccc(OC)cc2)[C@@H]1c1ccccc1 | -0.5 mP |

Sample 3
SMILES: CCCCN(CCCC)C(=O)CN1C[C@H](c2cc(OC)c3c(c2)OCO3)[C@@H](C(=O)O)[C@@H]1CC(C)(C)CCC
Observed: cell-free assay
Technique: competition with immobilised ligand
Tested at: 1 µM
| target | remaining binding [%] |
| --- | --- |
| CSF1R (Homo sapiens, UniProt P07333) | 100 |
| PIP5K1C (Homo sapiens, UniProt O60331) | 65.9 |
| EPHB3 (Homo sapiens, UniProt P54753) | 100 |
| CSNK1A1L (Homo sapiens, UniProt Q8N752) | 100 |
| PRKCQ (Homo sapiens, UniProt Q04759) | 100 |
| Macrophage colony-stimulating factor 1 receptor, autoinhibited (CSF1R, Homo sapiens, UniProt P07333) | 43 |
| SGK1 (Homo sapiens, UniProt O00141) | 69.2 |
| CLK2 (Homo sapiens, UniProt P49760) | 100 |
| ROCK1 (Homo sapiens, UniProt Q13464) | 90.4 |
| MAPK7 (Homo sapiens, UniProt Q13164) | 100 |
| EGFR (Homo sapiens, UniProt P00533, del747-750/T751S) | 95.6 |
| DCLK2 (Homo sapiens, UniProt Q8N568) | 100 |
| RIPK4 (Homo sapiens, UniProt P57078) | 85.5 |
| ACVR1B (Homo sapiens, UniProt P36896) | 96.4 |
| MAP3K3 (Homo sapiens, UniProt Q99759) | 94.3 |
| PIK3CA (Homo sapiens, UniProt P42336) | 89.7 |

Sample 4
Target: Tyrosine-protein kinase SYK (SYK, Homo sapiens, UniProt P43405)
Observed: enzyme activity
Mode: inhibitor
Tested at: 0.5 µM
Relative to: control
| SMILES | remaining activity |
| --- | --- |
| Cc1nc2cc3nc(-c4cccs4)cnc3cc2n1C | 94.3% |
| Nc1cccc(-c2cc3c(Oc4cccc(O)c4)ncnc3[nH]2)c1 | 36.1% |
| N#C/C(=C\c1ccc(O)c(O)c1)C(=O)NCc1ccccc1 | 116% |
| CCN(CC)CCNC(=O)c1c(C)[nH]c(/C=C2\C(=O)Nc3ccc(Cl)cc32)c1C | 59.2% |
| Cc1cn(-c2cc(NC(=O)c3ccc(C)c(Nc4nccc(-c5cccnc5)n4)c3)cc(C(F)(F)F)c2)cn1 | 110% |
| CCN(CC)C(=O)c1ccc(Nc2nc(OCC3CCCCC3)c3[nH]cnc3n2)cc1 | 61.1% |
| O=c1cc(-c2cccc3c2Sc2ccccc2S3)oc(N2CCOCC2)c1 | 106% |
| Ic1cccc(CSc2nnc(-c3ccncc3)o2)c1 | 92.2% |
| CCOc1nc(NC(=O)Cc2cc(OC)ccc2OC)cc(N)c1C#N | 99.2% |
| COc1cc2ncnc(Nc3ccc(O)c(Br)c3)c2cc1OC | 86.7% |
| Cc1cc2ncc(-c3ccccc3)nc2cc1C | 97.4% |
| COc1cc2ncnc(Nc3cccc(Cl)c3)c2cc1OC | 86.9% |
| c1ccc(-c2cnc(Nc3ccc(OCCN4CCCC4)cc3)s2)cc1 | 89.2% |
| c1ccc(-c2[nH]ncc2-c2ccnc3ccccc23)nc1 | 99.7% |
| N#Cc1c(NC(=O)c2cccc3ccccc23)sc2c1CCCC2 | 97.6% |
| CN(C)C[C@H]1CCn2c(c(C3=C(c4cn(C)c5ccccc45)C(=O)NC3=O)c3ccccc32)C1 | 99.6% |
| Cn1nc2c3c(cccc31)C(=O)c1ccccc1-2 | 94.8% |
| O=C(Nc1cccc(Nc2nccc(Nc3cccc(C(F)(F)F)c3)n2)c1)C1CC1 | 101% |
| O=C1C(Cl)=C(N2C(=O)CCC2=O)C(=O)c2ccccc21 | 95.9% |
| O=C(NC(NC(=S)Nc1ccc(F)c([N+](=O)[O-])c1)C(Cl)(Cl)Cl)C(c1ccccc1)c1ccccc1 (stereo not drawn) | 104% |
| CN([C@@H](Cc1ccc(OS(=O)(=O)c2cccc3cnccc23)cc1)C(=O)N1CCN(c2ccccc2)CC1)S(=O)(=O)c1cccc2cnccc12 | 98.7% |

A few entries again (sample 4):
| SMILES | remaining activity |
| --- | --- |
| CN([C@@H](Cc1ccc(OS(=O)(=O)c2cccc3cnccc23)cc1)C(=O)N1CCN(c2ccccc2)CC1)S(=O)(=O)c1cccc2cnccc12 | 98.7% |
| Cn1nc2c3c(cccc31)C(=O)c1ccccc1-2 | 94.8% |
| CCN(CC)C(=O)c1ccc(Nc2nc(OCC3CCCCC3)c3[nH]cnc3n2)cc1 | 61.1% |
| CCN(CC)CCNC(=O)c1c(C)[nH]c(/C=C2\C(=O)Nc3ccc(Cl)cc32)c1C | 59.2% |
| O=C(NC(NC(=S)Nc1ccc(F)c([N+](=O)[O-])c1)C(Cl)(Cl)Cl)C(c1ccccc1)c1ccccc1 (stereo not drawn) | 104% |
